Measurements pooled from the literature.
Numbered parts are unrelated; each lists some results of a single study. Substitutions count along the parent as printed.

Sample 1 — method: DHFR PCA, deep sequencing; sample: yeast; together with: (+)-ABA 58 µM; baseline: wild-type fitted maximum; reading: higher = stronger binding; measurement: relative binding score
Target: ABI1, truncated, D143A, DHFR fusion (Arabidopsis thaliana)
Setting: methotrexate growth selection, single substitutions
Parent: PYL1, truncated, DHFR fusion (Arabidopsis thaliana); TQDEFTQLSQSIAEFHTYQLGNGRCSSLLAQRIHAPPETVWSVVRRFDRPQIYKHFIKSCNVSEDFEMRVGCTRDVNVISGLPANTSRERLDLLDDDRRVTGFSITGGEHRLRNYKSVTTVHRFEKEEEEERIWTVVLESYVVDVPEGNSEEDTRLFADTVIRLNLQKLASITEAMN
A170K: 91.5%
E128Y: 90.7%
E127K: 97.2%
Y115V: -0.615%
C72Y: 69%
E127N: 95%
K54D: -9.01%
E174L: 51.2%
S140D: -11.7%
L166F: 26.9%
V76Y: 54.3%
R32C: 77.9%
S9R: 95.3%
R24P: 6.94%
K126E: 96.6%
A175F: 69.8%
S27C: 39.4%
Y18H: 91.4%
E131M: 96.1%
R113P: 3.46%
R155Q: 75.4%
V40P: -5.95%
S9D: 86.4%
H122M: 19.5%

Sample 2 — method: protein-binding microarray; molecule type: double-stranded DNA, one strand shown; sample: in vitro; tested at: 2540 nM top; setting: 60-bp whole probe; together with: salmon DNA 0.4 mg/ml; baseline: random background probes; reading: higher = stronger binding; measurement: fitted relative affinity; all sequences stand within: GCCTAGCAC … GTCTTGATTCGCTTGACGCTGCTG
Target: Interferon regulatory factor 3, full length, phosphomimetic (IRF3, Homo sapiens, UniProt Q14653, residues 1-427, S386D/S396D/S398D/S402D/T404D/S405D)
Construct (chain): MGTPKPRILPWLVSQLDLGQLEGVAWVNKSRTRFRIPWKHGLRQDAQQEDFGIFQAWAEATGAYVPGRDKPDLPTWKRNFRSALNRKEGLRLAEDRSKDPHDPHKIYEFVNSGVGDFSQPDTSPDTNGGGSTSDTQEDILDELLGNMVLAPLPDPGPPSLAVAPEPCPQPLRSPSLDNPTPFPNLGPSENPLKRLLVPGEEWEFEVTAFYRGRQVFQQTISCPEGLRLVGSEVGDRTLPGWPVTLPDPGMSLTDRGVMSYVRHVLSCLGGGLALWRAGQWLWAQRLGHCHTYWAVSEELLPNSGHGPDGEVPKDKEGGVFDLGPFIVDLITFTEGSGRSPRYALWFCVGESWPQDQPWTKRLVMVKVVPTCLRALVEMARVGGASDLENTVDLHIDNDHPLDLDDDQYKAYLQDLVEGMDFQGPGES
TTAGGTTTCGAATATCGGTTAGTGCTA: 3.76 z-score
TAATTTTCATTTTCCAAATGGTGCTAG: 5.65 z-score
TCTGATTTCTCAAACAGCTCGTGCTAG: 0.497 z-score
TGTGGTGCAGCTCCCTCCTCGTGCTAG: -0.724 z-score
AGATGGTCCTCTCTCTATTCGTGCTAG: 0.479 z-score
TTAGAACTGACTCTCGATTAGTGCTAG: -0.395 z-score
CTGCTGATCGGTTGGGGTGGGTGCTAG: -0.0653 z-score
GACGGTAACCTTATCCTGACGTGCTAG: 0.971 z-score
GACGGTTTCGGGCTTCGGGACGTGCTA: 3.96 z-score
TCAGTTTTCATTTTCTGACTGTGCTAG: 5.79 z-score
TCATCTTTCATTGCTGCACTGTGCTAG: 1.13 z-score
TCACCTATTTATATGAGACTGTGCTAG: 1.59 z-score
GACGGTCTCCTAGTGCTGACGTGCTAG: 0.923 z-score
GACGGACTGGGTTTCGGGAAGTGCTAG: 0.701 z-score
AACGATATCGGGTTTCGAGACGTGCTA: 1.2 z-score
GACGGTTTCCGACTGCTGACGTGCTAG: 5.04 z-score
CTCTACATGGGTATAGAGTAGTGCTAG: -0.307 z-score
AGATTTTTCTCAACCGTTGTGTGCTAG: 0.475 z-score
TTAGGACTGGGTATCGGTAAGTGCTAG: -0.00639 z-score

Sample 3 — target: CCNA1, cyclin fold, Cln2 fusion (human); method: yeast growth competition, sequencing; sample: yeast; setting: strong parent motif; baseline: not given; reading: higher = stronger binding; measurement: normalised enrichment score
Parent: RBL2 docking peptide (human); STTRRRLFVENDS; partner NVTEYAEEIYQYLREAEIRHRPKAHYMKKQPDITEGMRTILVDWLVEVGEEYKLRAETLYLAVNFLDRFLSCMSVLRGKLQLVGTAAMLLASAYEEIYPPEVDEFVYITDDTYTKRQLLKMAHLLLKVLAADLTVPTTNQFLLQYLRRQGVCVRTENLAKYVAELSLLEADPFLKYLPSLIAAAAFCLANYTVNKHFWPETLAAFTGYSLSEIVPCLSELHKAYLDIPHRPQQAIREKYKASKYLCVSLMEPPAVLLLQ
S1H: 0.739
R5C: 0.352
R5D: 0.214
T2V: 0.581
R4V: 0.337
S13C: 0.785
R4W: -0.00892
R5S: 0.444
D12W: 0.41
S13W: 0.801
N11P: 0.714
D12N: 0.0603
T2R: 0.555
F8V: 0.529
F8A: 0.184
R4N: 0.242
S1R: 0.837
N11C: 0.676
R6E: 0.453
R4F: 0.569
N11M: 0.795
R5V: 0.398
N11E: 0.55
R5E: 0.208
T3V: 0.908

Sample 4 — method: RNA Bind-n-Seq; molecule type: RNA; sample: in vitro; tested at: 365 nM; baseline: no-protein control; reading: higher = stronger binding; measurement: RBNS enrichment (R)
Target: RNA binding protein fox-1 homolog 2, RRM domain, GST-SBP tag (RBFOX2, Homo sapiens, UniProt O43251-10, residues 100-194)
Setting: natural RNA segment, single round, ends assumed
Construct (chain): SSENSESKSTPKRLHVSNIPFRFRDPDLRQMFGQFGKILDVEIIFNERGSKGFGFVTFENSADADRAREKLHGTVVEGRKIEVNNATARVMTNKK
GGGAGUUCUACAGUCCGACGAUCGGCACUUAUCUCUGGGAAAUUUGCCUCUCUUGGGACUCUCCCCCUCCCAGGCAUUUUCCAUUCCUGGAAAGGCUCCUUUGGGGUUCAGAAUCCAGAGACCAAACCCUGACUGGAAUUCUCGGGUGCCAA: 0.247
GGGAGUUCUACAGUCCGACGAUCAGAAGAGGGGAGGUAAGUCUGGGGGCUACGAAGCCGGGCCCCCACACCCUGGCUGAAGUCAGCUUGACCUAGGUCUUGACCCUCAUCCAGCAAGGGACUCGACAGACCCAUGGAAUUCUCGGGUGCCAA: 0.307
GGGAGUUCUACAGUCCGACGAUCGCAUAACUUGUUAUUGUCCUAGAUGUGUUUGAUAUUUUUCCUUUACAACUGAAUGCUAUAAAAGUGUUUUGCUGUGUACACAUAAGAUACUGUUCGUUAAAAUAAGCAUUUGGAAUUCUCGGGUGCCAA: 1.01
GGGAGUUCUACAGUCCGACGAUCCACAGAUCGGAAUAUGAAGUUCUUUAUGGUUCCAUAGCCUAGGUGUUUCUUGGGGGCAUUUGGGAGGCCAGGAGCAUCGUGGGCAGAUGAGAAGCAACGUUAGAAGGUUUUGGAAUUCUCGGGUGCCAA: 0.957
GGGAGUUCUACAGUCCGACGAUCUUUUAUAUCUUUGAAUUAUGUGAUUAGAUAUUAAUUUAAUGAUAAAACCACUCUGAAAGCUCUUCUCCUUCUGGGUGUUUGAGGUCUGGCUGGGGGGCAAAAGUGGAUGGUGGAAUUCUCGGGUGCCAA: 0.518
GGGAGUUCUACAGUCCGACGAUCCUAAAUGUUUUCAAAAUGUAAGUUCCUGUGGAGAAGAAUUGUUUAUAUUGCAAACGGGGGGACUGAGGGGAACCUGUAGGUUUAAAACAGUAUGUUUGUCAGCCAACUGAUGGAAUUCUCGGGUGCCAA: 0.81
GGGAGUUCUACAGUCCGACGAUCUGUUUGGUUGGGUUUUUGUUUGUUUGUUUUUUGUUUUUGCUUUUAUUGCCAAGAGGUGCUUGUUUUAAAAGUAUGUUUAAUAAAAUGAAAUUCUAAAGUUAGAAGUGUUCUGGAAUUCUCGGGUGCCAA: 4.13
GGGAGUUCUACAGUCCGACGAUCUCCAGAGUAGCUGGGACUACAAACGUGUGUCACCAGGCCCAGCUAAUUUUUGUAUUUUUAAUAAAGACGGGGUUUCAUCAUGUUGGCCAGGGUGGUCUCGAUCUCUUGACUGGAAUUCUCGGGUGCCAA: 0.919

For quick reference, copied from above (sample 1):
S27C: 39.4%
Y18H: 91.4%
E131M: 96.1%
R113P: 3.46%
R155Q: 75.4%
V40P: -5.95%
S9D: 86.4%
H122M: 19.5%
